Measured values collected from several papers.
Every numbered part comes from another study and shows a few of its results, in no order.
Sequence of UniProt O14920 (whole entry, looked up): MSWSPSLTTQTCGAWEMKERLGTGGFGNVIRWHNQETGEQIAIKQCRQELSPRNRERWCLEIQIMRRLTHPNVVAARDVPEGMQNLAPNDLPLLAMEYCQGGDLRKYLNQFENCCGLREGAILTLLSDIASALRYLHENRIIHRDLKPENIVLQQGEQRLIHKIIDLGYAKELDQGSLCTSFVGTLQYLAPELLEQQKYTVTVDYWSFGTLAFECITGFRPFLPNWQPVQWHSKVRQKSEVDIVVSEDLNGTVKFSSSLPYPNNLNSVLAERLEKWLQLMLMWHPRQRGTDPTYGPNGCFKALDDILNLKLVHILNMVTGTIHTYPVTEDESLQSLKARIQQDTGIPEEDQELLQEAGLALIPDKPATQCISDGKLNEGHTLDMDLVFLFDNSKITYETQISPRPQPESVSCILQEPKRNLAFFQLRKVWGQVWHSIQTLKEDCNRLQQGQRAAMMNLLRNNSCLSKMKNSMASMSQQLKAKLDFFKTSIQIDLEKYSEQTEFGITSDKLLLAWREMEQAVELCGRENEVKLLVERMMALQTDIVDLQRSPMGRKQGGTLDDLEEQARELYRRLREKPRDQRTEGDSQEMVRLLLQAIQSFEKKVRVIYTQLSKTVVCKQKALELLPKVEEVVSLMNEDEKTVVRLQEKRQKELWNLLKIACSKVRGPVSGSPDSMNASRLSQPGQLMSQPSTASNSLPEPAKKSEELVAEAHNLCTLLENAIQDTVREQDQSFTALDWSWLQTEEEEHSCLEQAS
Sequence of UniProt P45984 (whole entry, looked up): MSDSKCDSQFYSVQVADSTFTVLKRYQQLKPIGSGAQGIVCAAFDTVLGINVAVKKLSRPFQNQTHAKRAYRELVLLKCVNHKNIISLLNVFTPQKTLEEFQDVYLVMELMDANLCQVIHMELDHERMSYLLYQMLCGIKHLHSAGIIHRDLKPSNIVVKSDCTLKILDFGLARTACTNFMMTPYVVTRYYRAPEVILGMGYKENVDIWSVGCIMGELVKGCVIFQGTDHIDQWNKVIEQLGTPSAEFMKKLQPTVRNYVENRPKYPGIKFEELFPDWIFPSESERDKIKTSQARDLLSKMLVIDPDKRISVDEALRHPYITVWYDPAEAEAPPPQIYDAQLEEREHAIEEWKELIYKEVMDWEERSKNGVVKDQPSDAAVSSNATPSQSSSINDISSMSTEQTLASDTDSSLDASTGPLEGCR
Sequence of UniProt P53355 (whole entry, looked up): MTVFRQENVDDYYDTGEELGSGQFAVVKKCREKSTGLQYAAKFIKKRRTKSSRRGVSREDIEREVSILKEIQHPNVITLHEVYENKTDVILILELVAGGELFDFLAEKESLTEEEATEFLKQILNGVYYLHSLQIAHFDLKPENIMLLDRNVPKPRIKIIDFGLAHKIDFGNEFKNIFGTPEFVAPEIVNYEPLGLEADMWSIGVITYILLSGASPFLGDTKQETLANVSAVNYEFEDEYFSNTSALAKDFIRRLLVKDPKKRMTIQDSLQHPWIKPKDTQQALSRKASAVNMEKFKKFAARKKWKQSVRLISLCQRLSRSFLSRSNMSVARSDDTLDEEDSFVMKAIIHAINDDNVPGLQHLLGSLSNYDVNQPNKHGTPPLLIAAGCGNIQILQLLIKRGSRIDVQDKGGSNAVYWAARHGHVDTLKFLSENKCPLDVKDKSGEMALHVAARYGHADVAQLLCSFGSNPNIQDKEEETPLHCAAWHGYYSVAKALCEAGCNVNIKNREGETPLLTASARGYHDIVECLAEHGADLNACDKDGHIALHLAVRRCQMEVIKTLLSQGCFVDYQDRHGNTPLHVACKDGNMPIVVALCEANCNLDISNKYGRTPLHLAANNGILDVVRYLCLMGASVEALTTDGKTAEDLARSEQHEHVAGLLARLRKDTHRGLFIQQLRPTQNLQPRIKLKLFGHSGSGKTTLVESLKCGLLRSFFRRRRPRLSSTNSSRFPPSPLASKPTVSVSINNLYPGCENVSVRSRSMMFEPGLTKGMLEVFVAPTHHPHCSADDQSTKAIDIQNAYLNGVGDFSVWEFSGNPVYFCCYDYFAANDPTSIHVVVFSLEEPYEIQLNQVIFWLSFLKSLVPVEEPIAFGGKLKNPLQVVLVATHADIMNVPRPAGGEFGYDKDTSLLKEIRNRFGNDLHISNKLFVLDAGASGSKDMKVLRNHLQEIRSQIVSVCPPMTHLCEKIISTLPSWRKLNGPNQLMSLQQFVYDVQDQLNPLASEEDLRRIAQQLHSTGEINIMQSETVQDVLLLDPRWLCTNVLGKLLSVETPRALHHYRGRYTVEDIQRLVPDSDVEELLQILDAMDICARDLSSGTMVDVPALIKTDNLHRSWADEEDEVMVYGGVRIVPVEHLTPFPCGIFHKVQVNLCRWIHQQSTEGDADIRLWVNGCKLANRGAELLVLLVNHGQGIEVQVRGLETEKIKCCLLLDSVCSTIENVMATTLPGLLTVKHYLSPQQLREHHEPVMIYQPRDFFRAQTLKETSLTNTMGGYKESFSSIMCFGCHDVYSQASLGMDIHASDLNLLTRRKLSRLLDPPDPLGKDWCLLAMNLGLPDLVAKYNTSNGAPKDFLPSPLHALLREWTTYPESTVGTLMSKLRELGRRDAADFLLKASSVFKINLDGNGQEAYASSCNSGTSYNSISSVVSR
Sequence of UniProt P00519 (whole entry, unmodified, looked up): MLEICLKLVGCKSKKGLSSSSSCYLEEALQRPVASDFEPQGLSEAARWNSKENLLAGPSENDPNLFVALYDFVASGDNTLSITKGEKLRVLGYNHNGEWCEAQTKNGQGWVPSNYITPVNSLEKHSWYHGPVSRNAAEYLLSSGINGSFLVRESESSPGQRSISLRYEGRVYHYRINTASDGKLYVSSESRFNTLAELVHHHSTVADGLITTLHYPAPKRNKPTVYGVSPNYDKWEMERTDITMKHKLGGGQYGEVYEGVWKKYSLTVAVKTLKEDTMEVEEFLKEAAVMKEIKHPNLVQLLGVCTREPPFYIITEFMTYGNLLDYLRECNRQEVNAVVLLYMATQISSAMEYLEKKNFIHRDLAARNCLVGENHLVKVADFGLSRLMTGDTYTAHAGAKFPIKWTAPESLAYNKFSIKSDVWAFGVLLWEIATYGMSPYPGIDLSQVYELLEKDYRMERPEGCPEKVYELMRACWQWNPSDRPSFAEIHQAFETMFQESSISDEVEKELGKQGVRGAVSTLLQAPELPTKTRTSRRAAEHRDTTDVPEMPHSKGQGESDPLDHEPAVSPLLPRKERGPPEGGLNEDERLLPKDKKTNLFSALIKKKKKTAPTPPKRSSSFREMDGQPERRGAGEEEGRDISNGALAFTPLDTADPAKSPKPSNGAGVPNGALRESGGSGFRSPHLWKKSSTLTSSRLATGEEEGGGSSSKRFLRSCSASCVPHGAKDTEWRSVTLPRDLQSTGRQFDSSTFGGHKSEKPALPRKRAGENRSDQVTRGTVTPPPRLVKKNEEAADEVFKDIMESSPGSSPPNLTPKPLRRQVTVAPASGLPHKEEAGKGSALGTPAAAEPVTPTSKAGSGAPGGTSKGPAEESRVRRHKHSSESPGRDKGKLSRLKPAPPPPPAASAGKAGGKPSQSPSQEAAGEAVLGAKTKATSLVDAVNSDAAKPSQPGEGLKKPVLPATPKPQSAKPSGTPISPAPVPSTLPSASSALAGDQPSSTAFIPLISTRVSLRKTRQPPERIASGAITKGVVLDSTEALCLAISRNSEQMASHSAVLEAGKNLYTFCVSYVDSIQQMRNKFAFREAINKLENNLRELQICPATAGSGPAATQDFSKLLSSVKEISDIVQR
Sequence of UniProt P36897 (whole entry, looked up): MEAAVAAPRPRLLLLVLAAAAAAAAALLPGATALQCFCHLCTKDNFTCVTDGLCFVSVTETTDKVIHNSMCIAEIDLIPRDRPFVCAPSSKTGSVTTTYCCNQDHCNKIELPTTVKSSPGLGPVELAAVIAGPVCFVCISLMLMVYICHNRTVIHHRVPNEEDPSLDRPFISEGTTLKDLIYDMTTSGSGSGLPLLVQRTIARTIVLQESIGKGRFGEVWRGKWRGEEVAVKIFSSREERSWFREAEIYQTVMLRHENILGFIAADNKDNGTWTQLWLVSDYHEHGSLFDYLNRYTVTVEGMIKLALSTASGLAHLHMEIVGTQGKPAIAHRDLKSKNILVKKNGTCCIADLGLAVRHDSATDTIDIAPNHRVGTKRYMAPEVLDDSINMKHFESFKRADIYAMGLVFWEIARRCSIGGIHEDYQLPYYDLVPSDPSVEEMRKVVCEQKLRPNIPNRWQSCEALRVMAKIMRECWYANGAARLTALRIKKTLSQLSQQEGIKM
Sequence of UniProt Q00535 (whole entry, looked up): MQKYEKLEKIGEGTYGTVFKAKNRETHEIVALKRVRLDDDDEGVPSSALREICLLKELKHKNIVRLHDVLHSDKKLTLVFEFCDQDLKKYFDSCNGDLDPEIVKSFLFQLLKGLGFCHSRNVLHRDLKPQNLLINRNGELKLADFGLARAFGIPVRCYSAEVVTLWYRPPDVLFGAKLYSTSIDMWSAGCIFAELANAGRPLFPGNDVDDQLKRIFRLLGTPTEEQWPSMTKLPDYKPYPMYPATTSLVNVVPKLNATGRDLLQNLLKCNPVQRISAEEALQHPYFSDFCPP
Sequence of UniProt O96017 (whole entry, looked up): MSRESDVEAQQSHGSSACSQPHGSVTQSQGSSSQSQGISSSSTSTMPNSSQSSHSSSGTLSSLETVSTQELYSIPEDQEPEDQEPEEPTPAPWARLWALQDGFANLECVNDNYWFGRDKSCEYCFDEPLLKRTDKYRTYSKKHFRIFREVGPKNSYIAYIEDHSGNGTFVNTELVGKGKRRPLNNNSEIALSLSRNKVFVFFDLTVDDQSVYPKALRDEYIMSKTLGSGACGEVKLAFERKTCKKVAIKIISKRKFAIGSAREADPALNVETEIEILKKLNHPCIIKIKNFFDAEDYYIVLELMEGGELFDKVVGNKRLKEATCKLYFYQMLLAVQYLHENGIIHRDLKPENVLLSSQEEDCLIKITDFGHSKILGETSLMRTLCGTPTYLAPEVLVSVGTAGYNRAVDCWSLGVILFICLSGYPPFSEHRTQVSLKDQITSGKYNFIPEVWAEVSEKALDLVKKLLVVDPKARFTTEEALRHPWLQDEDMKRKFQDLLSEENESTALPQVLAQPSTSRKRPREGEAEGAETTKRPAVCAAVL

Study 1 — organism: Sarcocystis neurona; observed: parasite activity; tested at: concentration not given
Compound | activity class
CC(=O)OCC(=O)[C@@]12OC(C)(C)O[C@@H]1C[C@H]1[C@@H]3C[C@H](F)C4=CC(=O)C=C[C@]4(C)[C@@]3(F)[C@@H](O)C[C@@]12C | inactive
O=C1NC(=O)N(C2CC(O)C(CO)O2)CC1F (stereo not shown) | inactive
CCC1=C[C@@H]2CN(C1)Cc1c([nH]c3ccccc13)[C@@](C(=O)OC)(c1cc3c(cc1OC)N(C)[C@H]1[C@@](O)(C(=O)OC)[C@H](OC(C)=O)[C@]4(CC)C=CCN5CC[C@]31[C@@H]54)C2.O=C(O)C(O)C(O)C(=O)O.O=C(O)C(O)C(O)C(=O)O | inactive
CCCCC(=O)O[C@H]1CC[C@H]2[C@@H]3CCc4cc(O)ccc4[C@H]3CC[C@]12C | inactive
CN(Cc1cnc2nc(N)nc(N)c2n1)c1ccc(C(=O)N[C@@H](CCC(=O)O)C(=O)O)cc1.O | inactive

Study 2 — host: mouse; medium: microsomes or S9; tested at: 2 µM; time: 0.5 h
Compound | remaining compound
CN(C)c1ccc(S(=O)(=O)c2ccc(Cl)cc2)cc1 | 0.271%
Cc1cc(C)c(NC(=O)NCc2ccc3nnn(C4CCC(=O)NC4=O)c(=O)c3c2)c(Br)c1 (stereo not shown) | 21.7%
O=C(Nc1n[nH]c2cc(Br)ccc12)c1[nH]nc2c1CCCC2 | 0.0743%
CCOC(=O)Cn1cnc2c1c(=O)n(C)c(=O)n2C | 0.864%
Cc1ccc(S(=O)(=O)n2cc(-c3cc(Cl)c(O)c(Cl)c3)c3c(N4CCN(C(=O)c5ccccc5)CC4)ncnc32)cc1 | 14.8%
O=C(NC1CCc2ccccc21)c1nnn(-c2ccccc2Cl)c1-c1ccncc1 (stereo not shown) | 2.38%
Nc1nc2n(c1C(=O)c1ccc(Br)cc1)CCCC2 | 63.6%
CC1=C(Br)C(=O)N(C(C)(C(N)=O)C(C)C)C1=O (stereo not shown) | 54.6%
c1ccc(N(c2ccccc2)c2nc(N3CCOCC3)nc(N3CCOCC3)n2)cc1 | < 1%
Nc1cc(S(=O)(=O)c2ccc(Nc3ccccc3)c(N)c2)ccc1Nc1ccccc1 | 47.8%

Study 3 — Structure (SMILES): N#CC(=C(N)Sc1ccc(N)cc1)c1ccccc1C(F)(F)F; observed: enzyme activity; mode: inhibitor; tested at: 0.5 µM; relative to: control
target | remaining activity
Cyclin-dependent kinase 5, with p25 (CDK5, Homo sapiens, UniProt Q00535) | 93.1%
PRKACA (Homo sapiens, UniProt P17612) | 109%
DAPK1 (Homo sapiens, UniProt P53355) | 104%
MAPK9 (Homo sapiens, UniProt P45984) | 110%
TGFBR2 (Homo sapiens, UniProt P37173) | 113%
STK10 (Homo sapiens, UniProt O94804) | 88.7%
IKBKB (Homo sapiens, UniProt O14920) | 100%
GRK3 (Homo sapiens, UniProt P35626) | 101%
STK39 (Homo sapiens, UniProt Q9UEW8) | 94.6%
NEK2 (Homo sapiens, UniProt P51955) | 94.9%
CHEK2 (Homo sapiens, UniProt O96017) | 97.7%
TGFBR1 (Homo sapiens, UniProt P36897) | 98.3%

Further values, each from its own experiment
Compound | target | method | tested at | setting | relative to | endpoint | value
CNC(=O)Nc1ccc2c(c1)C1(CC2)OC(=O)N(CC(=O)N(Cc2ccc(F)cc2)[C@@H](C)C(F)(F)F)C1=O (single isomer, unassigned) | Tyrosine-protein kinase ABL1 (ABL1, Homo sapiens, UniProt P00519, E255K) | KINOMEscan | 1 µM | E255K mutant, phosphorylated | control | remaining binding | 100%

Some of these lines once more (study 3):
target | remaining activity
DAPK1 (Homo sapiens, UniProt P53355) | 104%
MAPK9 (Homo sapiens, UniProt P45984) | 110%
